Experimental data from different studies.
Protocols differ between the studies behind these lines. ± gives the spread as reported.

The solubility of `O=C(Nc1ccc(OC(F)(F)F)cc1)N[C@H]1CC[C@H](Oc2ccc(C(=O)O)cc2)CC1` is reported as 0.35 ± 0.106 µg/mL (deionised water; 2 min, pH 6.6, 37 °C, non-sink dissolution).
With `CCOC(=O)N1C[C@@H]([C@H](C)CC)N[C@@H](C2CCC2)C1` the solubility was greater than 750 µM (shake-flask, LC-HRMS; aqueous buffer; 16 h, pH 6.8).
`CC(C)(C)c1nc(-c2cccc(N(Cc3cc(C(=O)[O-])ccc3OP(=O)([O-])[O-])S(=O)(=O)c3c(F)cccc3F)c2F)c(-c2ccnc(N)n2)s1.[Na+].[Na+].[Na+]` has a solubility of greater than 49000 µg/mL (HPLC, saturated solution; HBSS; 30 s, pH 6.5).
`O=C(Nc1ccccc1)C1(C(F)(F)F)CC1` gave a solubility of 367 µM (PBS; 2 h, pH 7.4, 25 °C, 2% DMSO).
The solubility of `O=C1Nc2ccc3ncsc3c2/C1=C/Nc1ccc2c(c1)CS(=O)(=O)C2` is reported as less than 2.74 µg/mL (aqueous buffer; pH 7.4).
For `Cc1ccc([C@H]2N[C@H](c3ccc(C(C)(C)C)cc3)CO[C@@H]2C)cn1`, the solubility was less than 4 µM (shake-flask, LC-HRMS; aqueous buffer; 16 h, pH 6.8).
`CCn1c(SCC(=O)Nc2cccc(C(C)=O)c2)nnc1-c1ccncc1` has a solubility of less than 2.04 µg/mL (aqueous buffer; pH 7.4).
The solubility of `CC(=O)Nc1ccc([C@H]2COC[C@@H](c3ccc(C(F)(F)F)cc3)N2)cc1` is reported as less than 4 µM (shake-flask, LC-HRMS; aqueous buffer; 16 h, pH 6.8).
For `C[C@@H](O)[C@H](NC(=O)c1ccc(-c2ccccc2)cc1)C(=O)NCC1(C)NC(=O)NC1=O` (stereo partly shown), the solubility was 1370 µg/mL (aqueous buffer; pH 7.4).
`COc1ccc(Nc2ccnc3ccc(-c4ccc(S(=O)(=O)N5CCOCC5)cc4)cc23)cc1C` gave a solubility of 0.1 µM (thermodynamic; aqueous medium).
`O=C(Cc1ccccc1[N+](=O)[O-])Nc1ccccc1C(=O)N1CCOCC1` gave a solubility of 36.5 µg/mL (aqueous buffer; pH 7.4).
With `Cn1cncc1[C@@](N)(c1ccc(Cl)cc1)c1ccc2c(c1)c(-c1cccc(Cl)c1)cc(=O)n2C` the solubility was 117 ± 5.9 µg/mL (citrate buffer; pH 4.0, 25 °C, final pH 4.06).
The solubility of `CCOC(=O)N1C[C@@H](c2ccc(O)cc2)N[C@@H](C2CC2)C1` is reported as greater than 750 µM (shake-flask, LC-HRMS; aqueous buffer; 16 h, pH 6.8).
With `COc1cc(OC)c2c(=O)c(OC)c(-c3ccccc3)oc2c1` the solubility was 2306 ± 2.7 ppm (HPLC; ethanol:butylene glycol 25:75).
The solubility of `COc1cccc(-c2cccc(Nc3nccc(NC(C)C)n3)c2)c1` is reported as 0.2 ± 0.7 µM (citrate phosphate-buffered saline; 18 h, pH 7.4, 1% DMSO).
The solubility of `CCOC(=O)N1C[C@@H](c2ccc(C(C)(C)C)cc2)N[C@@H](c2ccc(F)c(C#N)c2)C1` is reported as less than 4 µM (shake-flask, LC-HRMS; aqueous buffer; 16 h, pH 6.8).
With `O=S(=O)(NCCSc1ccccn1)c1ccc(Br)cc1` the solubility was less than 4 µg/mL (aqueous buffer; pH 7.4).
With `Brc1cccc([C@H]2COC[C@@H](C3CCCCC3)N2)c1` the solubility was less than 4 µM (shake-flask, LC-HRMS; aqueous buffer; 16 h, pH 6.8).
With `Nc1nc2c(ncn2COCCO)c(=O)[nH]1` the solubility was 520 µg/mL (shake-flask; methanol-ethanol mixture; 298.2 K, mass fraction 0.4).
`CC(C)C1=NCCc2ccc(NC(=O)c3cc(Br)c4cc(C(=N)N)ccc4c3)cc21` has a solubility of 95.7 µg/mL (aqueous buffer; pH 7.4).
For `CCC1=C(CC)/C(=C/c2[nH]c(Cc3ccc(Cl)cc3)cc2Cc2ccc(Cl)cc2)N=C1c1ccc[nH]1`, the solubility was less than 3.13 µM (potassium phosphate buffer; 1.5 h, pH 7.4, room temperature).
`CCOC(=O)N1C[C@@H]([C@H]2CCOC2)N[C@@H](C2CCCCC2)C1` has a solubility of greater than 750 µM (shake-flask, LC-HRMS; aqueous buffer; 16 h, pH 6.8).
For `Cc1c(N(C)C)ccc2cc(C(=O)NS(=O)(=O)c3ccccc3-c3ccccc3)oc12`, the solubility was 312 µg/mL (PBS with 1% DMSO; 24 h, pH 6.5).
`CCOC(=O)N1C[C@@H](c2cccc(Br)c2)N[C@@H](C(CC)CC)C1` gave a solubility of less than 4 µM (shake-flask, LC-HRMS; aqueous buffer; 16 h, pH 6.8).
The solubility of `c1ccc(-c2cccc(Nc3nccc(NC4CCCCC4)n3)c2)cc1` is reported as less than 0.1 µM (citrate phosphate-buffered saline; 18 h, pH 7.4, 1% DMSO).

A few entries again:
The solubility of `CCOC(=O)N1C[C@@H](c2ccc(O)cc2)N[C@@H](C2CC2)C1` is reported as greater than 750 µM (shake-flask, LC-HRMS; aqueous buffer; 16 h, pH 6.8).
With `COc1cc(OC)c2c(=O)c(OC)c(-c3ccccc3)oc2c1` the solubility was 2306 ± 2.7 ppm (HPLC; ethanol:butylene glycol 25:75).
The solubility of `COc1cccc(-c2cccc(Nc3nccc(NC(C)C)n3)c2)c1` is reported as 0.2 ± 0.7 µM (citrate phosphate-buffered saline; 18 h, pH 7.4, 1% DMSO).
